{"data": "Results gathered from unrelated publications", "note": "Numbered parts are unrelated; each lists some results of a single study. Substitutions count along the parent as printed."}
{"data": "Series 1", "target": "ABI1, truncated, D143A, DHFR fusion (Arabidopsis thaliana)", "method": "DHFR PCA, deep sequencing", "sample": "yeast", "notes": "methotrexate growth selection, single substitutions", "with": "(+)-ABA 0.11 µM", "baseline": "wild-type fitted maximum", "reading": "higher = stronger binding", "starting sequence": "PYL1, truncated, DHFR fusion (Arabidopsis thaliana); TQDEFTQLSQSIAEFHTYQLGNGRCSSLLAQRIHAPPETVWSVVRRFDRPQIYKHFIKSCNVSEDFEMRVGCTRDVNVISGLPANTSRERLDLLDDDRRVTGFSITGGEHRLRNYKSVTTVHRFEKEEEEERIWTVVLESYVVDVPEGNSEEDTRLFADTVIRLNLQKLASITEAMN"}
{"Variant": "F157W", "relative binding score [%]": 33.2}
{"Variant": "E128D", "relative binding score [%]": 56.9}
{"Variant": "T106A", "relative binding score [%]": -5.15}
{"Variant": "W134F", "relative binding score [%]": 30.8}
{"Variant": "W41A", "relative binding score [%]": -5.38}
{"Variant": "A35R", "relative binding score [%]": 0.587}
{"Variant": "R49V", "relative binding score [%]": 2.13}
{"Variant": "H55D", "relative binding score [%]": -0.0239}
{"Variant": "T119M", "relative binding score [%]": 11}
{"Variant": "R111H", "relative binding score [%]": 2.13}
{"Variant": "T160S", "relative binding score [%]": 7.71}
{"Variant": "T173Q", "relative binding score [%]": -5.04}
{"Variant": "V43A", "relative binding score [%]": 5.93}
{"Variant": "Y115C", "relative binding score [%]": 5.49}
{"Variant": "V76A", "relative binding score [%]": 4.52}
{"Variant": "D95A", "relative binding score [%]": -6.66}
{"data": "Series 2", "target": "CCND2, cyclin fold, Cln2 fusion (human)", "method": "yeast growth competition, sequencing", "sample": "yeast", "notes": "weak parent motif", "baseline": "not given", "reading": "higher = stronger binding", "starting sequence": "BRCA2 docking peptide (human); PSIKRNLLNEFDR; partner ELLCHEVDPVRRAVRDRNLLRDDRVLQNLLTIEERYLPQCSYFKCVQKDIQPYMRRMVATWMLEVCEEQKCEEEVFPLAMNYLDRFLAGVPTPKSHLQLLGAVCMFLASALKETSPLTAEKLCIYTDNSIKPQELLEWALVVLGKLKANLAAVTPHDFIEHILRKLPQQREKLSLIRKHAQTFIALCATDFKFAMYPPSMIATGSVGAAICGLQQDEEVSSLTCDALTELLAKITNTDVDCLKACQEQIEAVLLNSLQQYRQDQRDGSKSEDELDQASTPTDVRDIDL"}
{"Variant": "E10T", "normalised enrichment score": -0.605}
{"Variant": "E10D", "normalised enrichment score": 0.349}
{"Variant": "L8A", "normalised enrichment score": 0.223}
{"Variant": "I3V", "normalised enrichment score": 0.134}
{"Variant": "D12S", "normalised enrichment score": 0.32}
{"Variant": "D12M", "normalised enrichment score": 0.444}
{"Variant": "L8V", "normalised enrichment score": 0.397}
{"Variant": "R5C", "normalised enrichment score": 0.0797}
{"Variant": "K4A", "normalised enrichment score": 0.0525}
{"Variant": "L8E", "normalised enrichment score": 0.311}
{"Variant": "S2P", "normalised enrichment score": -0.083}
{"Variant": "F11R", "normalised enrichment score": -0.215}
{"Variant": "D12N", "normalised enrichment score": 0.178}
{"Variant": "R5S", "normalised enrichment score": 0.55}
{"Variant": "R5V", "normalised enrichment score": 0.27}
{"Variant": "L7E", "normalised enrichment score": 0.0419}
{"Variant": "L8I", "normalised enrichment score": 0.417}
{"Variant": "N9Y", "normalised enrichment score": 0.0902}
{"Variant": "L7S", "normalised enrichment score": 0.046}
{"Variant": "L7F", "normalised enrichment score": -0.317}
{"Variant": "F11L", "normalised enrichment score": 0.0161}
{"Variant": "I3M", "normalised enrichment score": -0.0413}
{"Variant": "P1K", "normalised enrichment score": 0.219}
{"Variant": "R5A", "normalised enrichment score": -0.208}
{"Variant": "P1Y", "normalised enrichment score": 0.882}
{"data": "Series 3", "target": "Interferon regulatory factor 5, full length, phosphomimetic (IRF5, Homo sapiens, UniProt Q13568-2, residues 1-514, S451D/S453D/S456D/S462D)", "method": "protein-binding microarray", "form": "double-stranded DNA, one strand shown", "sample": "in vitro", "concentration": "940 nM top", "notes": "60-bp whole probe", "with": "salmon DNA 0.4 mg/ml", "baseline": "random background probes", "reading": "higher = stronger binding", "shared flanks, not repeated": "GCCTAGCAC … GTCTTGATTCGCTTGACGCTGCTG"}
{"Sequence": "GTCGATATCGGGTATCGAGACGTGCTA", "fitted relative affinity": "1.67 z-score"}
{"Sequence": "TTAGGTATCGGTCTCGGATAGTGCTAG", "fitted relative affinity": "9.76 z-score"}
{"Sequence": "TCATTACTTTCTATCTCACTGTGCTAG", "fitted relative affinity": "3.26 z-score"}
{"Sequence": "GACGGTGTCCTTTCCCTGACGTGCTAG", "fitted relative affinity": "-0.0226 z-score"}
{"Sequence": "GAAGGTTTCGGTTTCGGGACGTGCTAG", "fitted relative affinity": "12.8 z-score"}
{"Sequence": "AGTGTCTCCATCAGAGGAGAGTGCTAG", "fitted relative affinity": "-0.239 z-score"}
{"Sequence": "ATTTGTAAGTACATTAACTCGTGCTAG", "fitted relative affinity": "-0.321 z-score"}
{"Sequence": "GACGGTTTCCATTCCCTGACGTGCTAG", "fitted relative affinity": "2.11 z-score"}
{"Sequence": "GACGGACTGGGTTTCGGTACGTGCTAG", "fitted relative affinity": "5.94 z-score"}
{"Sequence": "TTAGATTTCGGGTTTCGATAAGTGCTA", "fitted relative affinity": "5.24 z-score"}
{"Sequence": "TTACAACTGAGTATCGATTAGTGCTAG", "fitted relative affinity": "4.9 z-score"}
{"Sequence": "GACGATATCGGGGCTGGAGACGTGCTA", "fitted relative affinity": "-0.185 z-score"}
{"Sequence": "GACGGACTGCTTATGCTGACGTGCTAG", "fitted relative affinity": "-0.803 z-score"}
{"Sequence": "TTAGGTATTGGGACTGGGTTAGTGCTA", "fitted relative affinity": "0.226 z-score"}
{"Sequence": "TCAGTCCTCACTTCCTTCTGGTGCTAG", "fitted relative affinity": "0.929 z-score"}
{"Sequence": "TCATCTTTTCATTACTGACTGTGCTAG", "fitted relative affinity": "1.37 z-score"}
{"Sequence": "TCATATGTCCTGTCTACAACTGTGCTA", "fitted relative affinity": "0.543 z-score"}
{"Sequence": "TTAGGTTTCCTACTGCTTAAGTGCTAG", "fitted relative affinity": "1.22 z-score"}
{"data": "Series 4", "target": "Runt-related transcription factor 3, Runt domain (RUNX3, Homo sapiens, UniProt Q13761, residues 53-186)", "method": "protein-binding microarray", "form": "hairpin DNA", "sample": "in vitro", "concentration": "not given", "notes": "whole hairpin DNA, median over replicate spots", "baseline": "not given", "reading": "higher = stronger binding", "UniProt Q13761, sequence (53-186, looked up)": "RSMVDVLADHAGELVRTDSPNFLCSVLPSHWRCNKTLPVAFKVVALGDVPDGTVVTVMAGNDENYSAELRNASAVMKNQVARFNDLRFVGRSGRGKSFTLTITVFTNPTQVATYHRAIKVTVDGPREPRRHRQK"}
{"Sequence": "GAGGCCTCGTGTGGTTGGCCTCCTGGCCAACCACACGAGGCCTCACACTC", "median fluorescence [a.u.]": 4970}
{"Sequence": "GAGGCCTCGTGCGGTTGGCCTCCTGGCCAACCGCACGAGGCCTCACACTC", "median fluorescence [a.u.]": 6940}
{"Sequence": "GAGGCCCAACCGCAAAAGCCTCCTGGCTTTTGCGGTTGGGCCTCACACTC", "median fluorescence [a.u.]": 9810}
{"Sequence": "GAGGCCTGTCGCGTTTGGCCTCCTGGCCAAACGCGACAGGCCTCACACTC", "median fluorescence [a.u.]": 5020}
{"Sequence": "GAGGCCCAACCGCATCAGCCTCCTGGCTGATGCGGTTGGGCCTCACACTC", "median fluorescence [a.u.]": 6670}
{"Sequence": "CTCAGTTCTGTGGACTGGACTCCTGTCCAGTCCACAGAACTGAGACACTC", "median fluorescence [a.u.]": 3830}
{"Sequence": "GAGGCCTGTCGCGGTTGGCCTCCTGGCCAACCGCGACAGGCCTCACACTC (5mC at 28)", "median fluorescence [a.u.]": 6190}
{"Sequence": "GAGGCCTGCGGCGGTTGGCCTCCTGGCCAACCGCCGCAGGCCTCACACTC", "median fluorescence [a.u.]": 6240}
{"Sequence": "CTCAGTTCTGTGCGCTGGACTCCTGTCCAGCGCACAGAACTGAGACACTC (5mC at 31)", "median fluorescence [a.u.]": 3900}
{"Sequence": "GAGGCCTATTGCGGTTGGCCTCCTGGCCAACCGCAATAGGCCTCACACTC", "median fluorescence [a.u.]": 7010}
{"Sequence": "GAGGCCAGTTGTGGTTGGCCTCCTGGCCAACCACAACTGGCCTCACACTC", "median fluorescence [a.u.]": 5590}
{"Sequence": "GAGGCCTGTCGCGATTGGCCTCCTGGCCAATCGCGACAGGCCTCACACTC", "median fluorescence [a.u.]": 5030}
{"Sequence": "GAGGCCCAACCCCAACAGCCTCCTGGCTGTTGGGGTTGGGCCTCACACTC (5mC at 12)", "median fluorescence [a.u.]": 5180}
{"Sequence": "GAGGCCAAACCGCAACAGCCTCCTGGCTGTTGCGGTTTGGCCTCACACTC", "median fluorescence [a.u.]": 12800}
{"Sequence": "GAGGCCTGTTGCCGTTGGCCTCCTGGCCAACGGCAACAGGCCTCACACTC (5mC at 31)", "median fluorescence [a.u.]": 4670}
{"Sequence": "GAGGCCTGGCGCGGTTGGCCTCCTGGCCAACCGCGCCAGGCCTCACACTC", "median fluorescence [a.u.]": 5780}
{"Sequence": "GCGGCCTGTCGCGGTTGGCCTCCTGGCCAACCGCGACAGGCCGCACACTC (5mC at 2)", "median fluorescence [a.u.]": 6240}
{"Sequence": "GAGGCCTTTCGCGGTTGGCCTCCTGGCCAACCGCGAAAGGCCTCACACTC", "median fluorescence [a.u.]": 5940}
{"data": "Series 5", "target": "Histone acetyltransferase KAT6A, winged helix 2, GST fusion (KAT6A, Homo sapiens, UniProt Q92794, residues 85-181)", "method": "protein binding microarray", "form": "double-stranded DNA, one strand shown", "sample": "in vitro", "concentration": "not given", "notes": "8-mer, flanks averaged, mean of 2 arrays, mostly near background", "baseline": "not given", "reading": "higher = stronger binding", "Construct (chain)": "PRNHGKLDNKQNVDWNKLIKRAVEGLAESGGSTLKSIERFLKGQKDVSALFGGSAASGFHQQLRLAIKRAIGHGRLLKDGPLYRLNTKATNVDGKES"}
{"Sequence": "TAGTCAAA", "E-score": -0.113}
{"Sequence": "AGATGCAG", "E-score": -0.0344}
{"Sequence": "CAAGGTCC", "E-score": 0.0868}
{"Sequence": "CCAGTTGA", "E-score": -0.0191}
{"Sequence": "AGGCCAAA", "E-score": -0.0152}
{"Sequence": "ACATGCCA", "E-score": -0.141}
{"Sequence": "ATTGTCGC", "E-score": "1.5e-05"}
{"Sequence": "CTGGAAAC", "E-score": -0.0377}
{"Sequence": "GTATTGAC", "E-score": -0.203}
{"Sequence": "CCTTGTGC", "E-score": -0.0552}
{"Sequence": "AAGACTCG", "E-score": -0.0711}
{"Sequence": "CCCGTTCA", "E-score": -0.0454}
{"Sequence": "CGTATGAG", "E-score": -0.0811}
{"Sequence": "CCCTTTAA", "E-score": 0.0135}
{"Sequence": "CCATTCAA", "E-score": 0.0612}
{"Sequence": "CCGCTTCC", "E-score": 0.0744}
{"Sequence": "CCCTAGAA", "E-score": -0.0644}
{"Sequence": "TATAGAGA", "E-score": -0.082}
{"Sequence": "ACCAGTAC", "E-score": -0.0978}
{"note": "For quick reference, copied from above (series 2):"}
{"Variant": "L8A", "normalised enrichment score": 0.223}
{"Variant": "D12S", "normalised enrichment score": 0.32}
{"Variant": "E10D", "normalised enrichment score": 0.349}
{"Variant": "L7E", "normalised enrichment score": 0.0419}
{"Variant": "I3M", "normalised enrichment score": -0.0413}
{"Variant": "R5V", "normalised enrichment score": 0.27}
{"Variant": "D12N", "normalised enrichment score": 0.178}
{"Variant": "L8I", "normalised enrichment score": 0.417}
{"Variant": "N9Y", "normalised enrichment score": 0.0902}
{"Variant": "P1Y", "normalised enrichment score": 0.882}
{"Variant": "E10T", "normalised enrichment score": -0.605}
{"Variant": "L7S", "normalised enrichment score": 0.046}
{"Variant": "K4A", "normalised enrichment score": 0.0525}
